Results pooled from the literature.
Lines come from different studies, so protocols differ.
Target: Serine/threonine-protein kinase MAK (MAK, Homo sapiens, UniProt P20794)

SMILES	test	setting	scale	measurement	result
CNC(=O)C1CCN(c2cc(C)c(F)cc2NC(=O)c2ccc(-c3cc(O)ccc3C)c(C)c2)CC1	binding, competition with immobilised ligand	1 µM		remaining binding	96%
CCN1CCN(Cc2ccc(C(=O)Nc3ccc(C)c(NCc4cnc5[nH]ccc5c4OC)c3)cc2C(F)(F)F)CC1	binding, competition with immobilised ligand	1 µM		remaining binding	80%
CCn1cc(C(=O)O)c(=O)c2c(N)c(F)c(NC3CCCCC3)cc21	kinase activity	0.1 µM, together with: ATP at Km		inhibition	5.5%
COc1c(Cl)cccc1Nc1c(-c2ccncc2C#C[C@@]2(C)CCCN2C(=O)/C=C/CN(C)C)[nH]c2c1C(=O)NCC2	binding, competition with immobilised ligand	3 µM		remaining binding	100%
Nc1ncc(-c2cc(-c3cnn(CC(F)(F)F)c3)ncc2F)nc1C(=O)NC1CNCC(F)C1 (stereo not shown)	enzyme activity	1 µM	baseline: DMSO control	remaining activity	96.7%
Nc1ncc2c(n1)-c1c([nH]c3ccc(C4=CCOCC4)cc13)CCC2	binding, competition with immobilised ligand	1 µM		remaining binding	99%
C=CC(=O)N1CCCC(n2c(=O)c3ncccc3n(Cc3ccc(Oc4ccccc4)cc3)c2=O)C1 (stereo not shown)	cell-free assay, competition with immobilised ligand	1 µM		remaining binding	100%
CN1CC[C@@H](COc2cnc(C#N)cc2-c2ccn3nc(NC(=O)C4CC4)cc3c2)C1	enzyme activity, inhibitor	1 µM		inhibition	-13%
CC(C)=CC1OC(C)(C)C2C=C3C(=O)C(Cl)=CC(O)C3C3C(O)C4OC4C(=O)C132 (stereo not shown)	cell-free assay, competition with immobilised ligand	10 µM		remaining binding	100%
C=CC(=O)N1CCc2ccc(-n3c(=O)ccc4cnc5ccc(-c6cnn(C)c6)cc5c43)cc21	KINOMEscan	1 µM	baseline: DMSO control	remaining binding	100%
COc1cc(Nc2nc(C)cc(-c3cnn4nc(OC)ccc34)n2)cc(C(F)(F)F)c1	inhibitor	1 µM	baseline: control	remaining activity	84%
CNC1C[S+]2CC[S+]3CC[S+](C1)[Ru-4]321([N]=C=S)[n]2c3ccc(OC)cc3c3c4c(c5cc(F)c[n+]1c5c32)C(=O)NC4=O (stereo not shown)	KinomeScan	0.1 µM	baseline: untreated	remaining binding	51%
Cc1cnc2nc1Nc1cccc(c1)COC/C=C/COCc1cc(ccc1OCCN1CCOCC1)N2	binding	0.1 µM		remaining binding	88%
Cc1ccc(-c2c(/C=C(\C#N)C(=O)NC(C)C)n(CCCO)c3ncnc(N)c23)cc1	cell-free assay, competition with immobilised ligand	1 µM		remaining binding	100%
O=C(Cc1ccc(OCc2ccccc2)cc1)NC1(C(=O)O)CCN(C(=O)c2ccc(-c3cccc(Cl)c3)cc2)CC1	enzyme activity, inhibitor	10 µM		activity vs control	97%
COc1cc(Nc2nccc(-c3cnn4nc(OC)ccc34)n2)cc(C(F)(F)F)c1	binding, competition with immobilised ligand	1 µM		remaining binding	100%
